{"data": "Measured values pooled from the literature", "note": "Protocols differ between the studies behind these lines. ± gives the spread as reported."}
{"SMILES": "CCN1CCN(Cc2ccc(NC(=O)c3ccc(C)c(NC(=O)c4cncc(-c5cccs5)c4)c3)cc2C(F)(F)F)CC1", "test system": "C57BL/6 mice, epithelial lining fluid", "setting": "intraperitoneal, 15 mg/kg", "measurement": "Cmax", "value": "2110 ng/mL"}
{"SMILES": "CC(C)(C)c1ccc(O)c(CN(Cc2cc(C(C)(C)C)ccc2O)C2CCC(NC(N)=O)CC2)c1 (centres unmarked)", "test system": "C57BL/6 mice, male, brain", "setting": "intraperitoneal, 10 mg/kg", "how to read": "baseline: 5 mg/kg dose", "measurement": "Cmax fold increase", "value": "1.7 fold"}
{"SMILES": "CNC(=O)c1cc(Oc2ccc(NC(=O)Nc3ccc(Cl)c(C(F)(F)F)c3)cc2)ccn1", "test system": "female wild-type DBA1/lacJ mice, plasma", "setting": "oral, 10 mg/kg, geometric mean, added: rifampin 20 mg/kg i.v.", "measurement": "Cmax", "value": "4090 ng/mL"}
{"SMILES": "CC[C@@]1(O)C(=O)OCc2c1cc1n(c2=O)Cc2c-1nc1cc(F)c(C)c3c1c2[C@@H](N)CC3", "test": "item: free payload", "test system": "BALB/c nude mice, NCI-H1975 xenograft, tumour", "setting": "intravenous, 10 mg/kg", "how to read": "baseline: compound over DXd", "measurement": "Cmax ratio", "value": "> 1.7"}
{"SMILES": "CCc1nc(C(N)=O)c(Nc2ccc(N3CCC(N4CCN(C)CC4)CC3)c(OC)c2)nc1NC1CCOCC1", "test system": "female FVB mice, OCT1/2 knockout, plasma", "setting": "oral, 10 mg/kg, single dose", "measurement": "Cmax", "value": "406 ± 41 ng/mL"}
{"SMILES": "Cn1c(C(F)(F)F)cc(=O)n(-c2cc(Oc3cccnc3OCC(=O)O)c(Cl)cc2F)c1=O", "test system": "Crl:CD1(ICR) mice, male, plasma", "setting": "oral diet, 100 ppm in diet, day 1, 90-day toxicity study", "measurement": "Cmax", "value": "332 ng/mL"}
{"SMILES": "Cc1c(C(=O)O)ccc2c3n(nc12)[C@@H]1[C@H](C3)N(CC2CC2)[C@@]2(C(=O)Nc3cc(Cl)ccc32)[C@H]1c1cccc(Cl)c1F", "test system": "female BALB/c nude mice, SJSA-1 xenograft, plasma", "setting": "oral, 2 mg/kg once daily, mean", "measurement": "Cmax", "value": "2210 nM"}
{"SMILES": "O=C(O)C[C@H](O)C[C@H](O)/C=C/c1c(C2CC2)nc2ccccc2c1-c1ccc(F)cc1", "test system": "FVB wild-type mice, plasma", "setting": "oral, dose not given, added: rifampicin 20 mg/kg", "how to read": "baseline: vehicle", "measurement": "Cmax increase", "value": "4.59 fold"}
{"note": "Some of these lines once more:"}
{"SMILES": "Cc1c(C(=O)O)ccc2c3n(nc12)[C@@H]1[C@H](C3)N(CC2CC2)[C@@]2(C(=O)Nc3cc(Cl)ccc32)[C@H]1c1cccc(Cl)c1F", "test system": "female BALB/c nude mice, SJSA-1 xenograft, plasma", "setting": "oral, 2 mg/kg once daily, mean", "measurement": "Cmax", "value": "2210 nM"}
